Results of several laboratories.
Numbered parts are unrelated; each lists some results of a single study. Substitutions count along the parent as printed.
UniProt Q86YV6, sequence (whole entry, looked up): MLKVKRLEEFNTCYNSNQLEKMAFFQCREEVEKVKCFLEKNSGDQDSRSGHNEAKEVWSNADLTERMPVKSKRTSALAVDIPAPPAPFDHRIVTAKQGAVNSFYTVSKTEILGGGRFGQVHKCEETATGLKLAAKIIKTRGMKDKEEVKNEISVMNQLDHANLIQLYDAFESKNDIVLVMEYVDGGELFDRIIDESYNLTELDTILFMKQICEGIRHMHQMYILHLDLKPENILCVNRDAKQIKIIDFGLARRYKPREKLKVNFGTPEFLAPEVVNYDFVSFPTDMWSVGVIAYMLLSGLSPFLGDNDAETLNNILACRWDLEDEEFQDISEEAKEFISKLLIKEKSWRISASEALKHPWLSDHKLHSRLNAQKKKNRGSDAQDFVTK
UniProt O00238, sequence (whole entry, looked up): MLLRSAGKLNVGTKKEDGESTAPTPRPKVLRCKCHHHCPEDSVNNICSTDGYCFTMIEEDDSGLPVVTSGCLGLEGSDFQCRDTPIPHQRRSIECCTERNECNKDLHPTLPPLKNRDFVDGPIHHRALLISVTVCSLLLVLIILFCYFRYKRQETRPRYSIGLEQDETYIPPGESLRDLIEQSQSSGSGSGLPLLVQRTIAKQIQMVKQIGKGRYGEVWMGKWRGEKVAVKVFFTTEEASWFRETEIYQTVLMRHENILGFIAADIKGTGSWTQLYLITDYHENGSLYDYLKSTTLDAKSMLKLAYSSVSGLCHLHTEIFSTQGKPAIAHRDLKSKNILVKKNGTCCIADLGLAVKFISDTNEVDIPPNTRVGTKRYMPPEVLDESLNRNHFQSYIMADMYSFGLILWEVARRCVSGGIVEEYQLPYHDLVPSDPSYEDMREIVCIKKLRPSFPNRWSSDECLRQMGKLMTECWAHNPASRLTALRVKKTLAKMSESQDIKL
UniProt Q9UQ88, sequence (whole entry, looked up): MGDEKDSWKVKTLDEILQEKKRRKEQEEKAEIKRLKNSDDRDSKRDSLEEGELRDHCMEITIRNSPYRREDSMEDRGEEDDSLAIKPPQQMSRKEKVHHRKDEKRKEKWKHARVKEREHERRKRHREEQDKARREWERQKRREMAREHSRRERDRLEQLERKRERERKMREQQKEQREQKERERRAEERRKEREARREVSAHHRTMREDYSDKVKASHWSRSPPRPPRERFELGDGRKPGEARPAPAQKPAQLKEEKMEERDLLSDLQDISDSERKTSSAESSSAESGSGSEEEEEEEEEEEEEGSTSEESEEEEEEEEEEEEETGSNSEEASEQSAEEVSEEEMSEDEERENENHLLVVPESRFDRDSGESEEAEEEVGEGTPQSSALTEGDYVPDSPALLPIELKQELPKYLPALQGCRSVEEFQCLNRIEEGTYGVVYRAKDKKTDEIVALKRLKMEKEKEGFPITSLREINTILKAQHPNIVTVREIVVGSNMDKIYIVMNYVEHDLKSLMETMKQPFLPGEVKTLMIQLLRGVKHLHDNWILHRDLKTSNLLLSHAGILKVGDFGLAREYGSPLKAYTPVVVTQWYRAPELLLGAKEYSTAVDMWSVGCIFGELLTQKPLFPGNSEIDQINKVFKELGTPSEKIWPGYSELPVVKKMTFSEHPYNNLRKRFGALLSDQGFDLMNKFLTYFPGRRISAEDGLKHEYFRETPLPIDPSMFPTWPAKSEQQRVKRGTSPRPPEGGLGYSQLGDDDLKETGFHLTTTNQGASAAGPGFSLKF
UniProt P33981, sequence (whole entry, looked up): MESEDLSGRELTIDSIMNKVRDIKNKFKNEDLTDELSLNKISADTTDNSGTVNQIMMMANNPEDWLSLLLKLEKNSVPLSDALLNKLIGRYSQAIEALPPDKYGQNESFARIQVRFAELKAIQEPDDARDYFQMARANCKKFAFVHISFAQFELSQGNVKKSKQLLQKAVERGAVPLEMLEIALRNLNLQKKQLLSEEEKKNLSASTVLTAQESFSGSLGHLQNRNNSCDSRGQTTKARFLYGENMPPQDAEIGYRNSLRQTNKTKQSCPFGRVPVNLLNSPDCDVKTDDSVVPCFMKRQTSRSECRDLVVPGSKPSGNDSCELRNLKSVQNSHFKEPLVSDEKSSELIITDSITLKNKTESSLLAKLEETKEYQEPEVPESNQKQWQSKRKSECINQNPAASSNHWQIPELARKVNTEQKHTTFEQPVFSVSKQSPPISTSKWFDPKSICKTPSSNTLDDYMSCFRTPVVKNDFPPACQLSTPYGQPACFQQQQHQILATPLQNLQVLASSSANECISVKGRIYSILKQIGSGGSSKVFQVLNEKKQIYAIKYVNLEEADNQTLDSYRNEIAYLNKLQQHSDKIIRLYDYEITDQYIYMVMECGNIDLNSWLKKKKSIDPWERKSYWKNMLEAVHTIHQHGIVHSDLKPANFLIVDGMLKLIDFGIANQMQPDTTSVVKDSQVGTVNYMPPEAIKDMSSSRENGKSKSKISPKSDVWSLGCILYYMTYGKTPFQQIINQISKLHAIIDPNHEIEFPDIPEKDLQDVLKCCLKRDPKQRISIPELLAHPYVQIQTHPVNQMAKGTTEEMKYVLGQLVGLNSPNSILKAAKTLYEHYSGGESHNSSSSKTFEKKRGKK

Series 1
Target: Centromere-binding protein 1, full length, N-terminal tag (CBF1, Saccharomyces cerevisiae, UniProt P17106, residues 1-351)
UniProt P17106, sequence (whole entry, looked up): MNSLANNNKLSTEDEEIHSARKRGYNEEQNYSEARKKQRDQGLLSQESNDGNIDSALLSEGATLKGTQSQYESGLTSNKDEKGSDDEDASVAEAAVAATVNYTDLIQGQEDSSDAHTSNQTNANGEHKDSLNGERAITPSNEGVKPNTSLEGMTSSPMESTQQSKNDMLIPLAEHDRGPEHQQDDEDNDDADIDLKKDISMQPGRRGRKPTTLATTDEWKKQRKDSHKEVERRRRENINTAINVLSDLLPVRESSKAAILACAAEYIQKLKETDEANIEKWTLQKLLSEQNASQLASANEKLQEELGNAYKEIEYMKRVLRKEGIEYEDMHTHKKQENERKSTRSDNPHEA
Technique: protein-binding microarray
Molecule type: double-stranded DNA, one strand shown
Sample: in vitro
Tested at: 0.8 µM
Setting: whole 60-bp probe, no competitor
Reading: higher = stronger binding
Shared flanks, not repeated: … GTCTTGATTCGCTTGACGCTGCTG
Strand | fluorescence intensity
CCTAACTACTATAACCACCAATGATAGCTTCGTACA | 502 a.u.
GAACCCGGCCTGGACACCATCACCAACACTTCTTAG | 527 a.u.
CTATTCCTCCTGATCCTTGTGATTATAACTATATTC | 595 a.u.
GAAACAAAACAATGCCGCACCTGAGGGAGAACATAG | 522 a.u.
CTATAACCCAGTTTCAACGTGTTATTACTCAACTTC | 533 a.u.
CTAAAGATTTACTCTCCCGTGATGCCGGGCCAATTC | 819 a.u.
GAAATAATTCAGCGTGATATGATGGAGTTTTGTTAG | 694 a.u.
CTAGATCGTCAACAACTCGTGCATATTTTTTTGTTC | 629 a.u.

Series 2
Target: FOSL1, bZIP domain (human)
Technique: DHFR protein complementation
Sample: yeast
Setting: single substitutions, most at no-binding floor
Relative to: wild-type JUN-FOS pair
Reading: higher = stronger binding
Parent: JUN, bZIP domain (human); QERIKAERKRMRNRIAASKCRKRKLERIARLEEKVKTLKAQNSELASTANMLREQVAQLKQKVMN; partner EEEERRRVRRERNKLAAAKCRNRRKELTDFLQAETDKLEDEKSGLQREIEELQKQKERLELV
Substitution | binding fitness [natural log]
A46L | -0.39
A46P | -1.32
L52D | -1.43
L59Q | -1.36
L52G | -1.42
Q55C | -0.567
A57Q | -0.542
L38N | -1.36

Series 3
Target: Serine/threonine-protein kinase tousled-like 2 (TLK2, Homo sapiens, UniProt Q86UE8)
UniProt Q86UE8, sequence (whole entry, looked up): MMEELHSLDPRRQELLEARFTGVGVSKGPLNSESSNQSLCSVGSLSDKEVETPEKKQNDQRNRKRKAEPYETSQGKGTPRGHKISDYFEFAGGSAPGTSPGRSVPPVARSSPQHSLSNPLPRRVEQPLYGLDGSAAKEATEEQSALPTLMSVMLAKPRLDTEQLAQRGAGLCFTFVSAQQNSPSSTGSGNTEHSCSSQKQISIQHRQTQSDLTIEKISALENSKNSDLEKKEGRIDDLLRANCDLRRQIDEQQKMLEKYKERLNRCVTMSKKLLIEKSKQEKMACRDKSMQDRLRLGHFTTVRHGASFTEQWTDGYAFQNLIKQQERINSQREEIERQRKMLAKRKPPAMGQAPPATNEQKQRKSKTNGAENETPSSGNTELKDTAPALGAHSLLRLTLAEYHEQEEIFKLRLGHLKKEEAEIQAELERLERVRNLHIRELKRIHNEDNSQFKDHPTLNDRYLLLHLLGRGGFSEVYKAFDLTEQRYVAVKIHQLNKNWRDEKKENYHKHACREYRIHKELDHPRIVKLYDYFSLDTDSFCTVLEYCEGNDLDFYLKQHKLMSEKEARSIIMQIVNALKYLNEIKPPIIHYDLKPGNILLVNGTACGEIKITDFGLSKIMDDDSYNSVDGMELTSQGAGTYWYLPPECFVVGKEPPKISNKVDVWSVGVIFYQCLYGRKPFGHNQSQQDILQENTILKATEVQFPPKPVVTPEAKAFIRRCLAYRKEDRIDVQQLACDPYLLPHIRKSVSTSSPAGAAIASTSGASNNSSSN
Effect on: enzyme activity
Action: inhibitor
Tested at: 0.5 µM
Relative to: control
Structure (SMILES) | remaining activity [%]
Oc1ccc(-c2nc(-c3ccncc3)c(-c3ccc(F)cc3)[nH]2)cc1 | 97.4
Nc1ccc2ncnc(NCCc3ccc(Oc4ccccc4)cc3)c2c1 | 92.8
C#Cc1cccc(Nc2ncnc3cc(OCCOC)c(OCCOC)cc23)c1 | 85.9
Cc1nc(-c2ccccc2)c(-c2ccncc2)o1 | 110
CCOC(=O)c1c(C)[nH]c(/C=C2\C(=O)Nc3ccccc32)c1C | 96.5
Cc1cccc(-c2[nH]c(C(C)(C)C)nc2-c2ccc3c(c2)OCO3)n1 | 103
O=C1NC(=O)C(c2cn(CCCn3ccnc3)c3ccccc23)=C1Nc1ccccc1 | 74.1
COc1cc2ncnc(Nc3ccc(F)c(Cl)c3)c2cc1OCCCN1CCOCC1 | 80.4
Cc1ccc(NC(=O)c2ccc(CN3CCN(C)CC3)cc2)cc1Nc1nc(-c2cccnc2)cs1 | 94.5
CNC(=O)c1cc(Oc2ccc(NC(=O)Nc3ccc(Cl)c(C(F)(F)F)c3)cc2)ccn1 | 84.8
COc1cc2nccc(Oc3ccc(NC(=S)NC(=O)c4ccccc4C)cc3)c2cc1OC | 85.3

Series 4
SMILES: CN(C)c1ncnc(-c2ccc3nc(Nc4cc(CN5CCN(C(=O)CC(F)(F)F)CC5)ccn4)[nH]c3c2)c1Cl
Effect on: cell-free assay
Technique: competition with immobilised ligand
Tested at: 1 µM
target | remaining binding
Ephrin type-A receptor 7 (EPHA7, Homo sapiens, UniProt Q15375) | 100%
Mitogen-activated protein kinase kinase kinase 15 (MAP3K15, Homo sapiens, UniProt Q6ZN16) | 75%
Dual specificity protein kinase TTK (TTK, Homo sapiens, UniProt P33981) | 100%
Serine/threonine-protein kinase TAO3 (TAOK3, Homo sapiens, UniProt Q9H2K8) | 33%
Bone morphogenetic protein receptor type-1B (BMPR1B, Homo sapiens, UniProt O00238) | 59%
Ribosomal protein S6 kinase alpha-2, N-terminal kinase domain (RPS6KA2, Homo sapiens, UniProt Q15349) | 100%
Cyclin-dependent kinase 13 (CDK13, Homo sapiens, UniProt Q14004) | 84%
Myosin light chain kinase family member 4 (MYLK4, Homo sapiens, UniProt Q86YV6) | 100%
Serine/threonine-protein kinase D3 (PRKD3, Homo sapiens, UniProt O94806) | 88%
Cyclin-dependent kinase 11A (CDK11A, Homo sapiens, UniProt Q9UQ88) | 100%
Receptor-type tyrosine-protein kinase FLT3, autoinhibited (FLT3, Homo sapiens, UniProt P36888) | 71%
Ribosomal protein S6 kinase alpha-4, N-terminal kinase domain (RPS6KA4, Homo sapiens, UniProt O75676) | 80%
Serine/threonine-protein kinase 10 (STK10, Homo sapiens, UniProt O94804) | 54%

Repeated from above (series 2):
Substitution | binding fitness [natural log]
A46P | -1.32
L52D | -1.43
L59Q | -1.36
L52G | -1.42
Q55C | -0.567
A57Q | -0.542
L38N | -1.36
